{"data": "Measurements collected from several papers", "note": "Numbered parts are unrelated; each lists some results of a single study. Changes are numbered by the printed parent chain."}
{"data": "Set 1", "target": "Prothrombin, mature alpha-thrombin (F2, Homo sapiens, UniProt P00734)", "method": "aptamer microarray, sandwich", "molecule type": "DNA with 2'F-ANA", "sample": "in vitro", "concentration": "200 nM", "notes": "whole 15-mer aptamer, many near background", "with": "Cy3 exosite-II aptamer, 400 nM", "direction": "higher = stronger binding", "strand": "GGTTGGTGTGGTTGG"}
{"Modification": "2'F-ANA at 3 4 6 7 8 9 10 12 13 14", "mean fluorescence intensity [a.u.]": 220}
{"Modification": "2'F-ANA at 1 5", "mean fluorescence intensity [a.u.]": 73.7}
{"Modification": "2'F-ANA at 3 4 6 7 12 15", "mean fluorescence intensity [a.u.]": 915}
{"Modification": "2'F-ANA at 1 2 3 9 10 13", "mean fluorescence intensity [a.u.]": 63.3}
{"Modification": "2'F-ANA at 4 5 6 9 14", "mean fluorescence intensity [a.u.]": 51}
{"Modification": "2'F-ANA at 3 6 7 8 10 11 12 13 15", "mean fluorescence intensity [a.u.]": 491}
{"Modification": "2'F-ANA at 5 9 10 13 14 15", "mean fluorescence intensity [a.u.]": 44.9}
{"data": "Set 2", "target": "Sal-like protein 4, full length isoform A (SALL4, Homo sapiens, UniProt Q9UJQ4, residues 1-1053)", "method": "universal PBM", "molecule type": "double-stranded DNA, one strand shown", "sample": "in vitro", "concentration": "600 nM", "notes": "8-mer, flanks averaged, mean of replicates", "direction": "higher = stronger binding", "sequence of UniProt Q9UJQ4 (whole entry, looked up)": "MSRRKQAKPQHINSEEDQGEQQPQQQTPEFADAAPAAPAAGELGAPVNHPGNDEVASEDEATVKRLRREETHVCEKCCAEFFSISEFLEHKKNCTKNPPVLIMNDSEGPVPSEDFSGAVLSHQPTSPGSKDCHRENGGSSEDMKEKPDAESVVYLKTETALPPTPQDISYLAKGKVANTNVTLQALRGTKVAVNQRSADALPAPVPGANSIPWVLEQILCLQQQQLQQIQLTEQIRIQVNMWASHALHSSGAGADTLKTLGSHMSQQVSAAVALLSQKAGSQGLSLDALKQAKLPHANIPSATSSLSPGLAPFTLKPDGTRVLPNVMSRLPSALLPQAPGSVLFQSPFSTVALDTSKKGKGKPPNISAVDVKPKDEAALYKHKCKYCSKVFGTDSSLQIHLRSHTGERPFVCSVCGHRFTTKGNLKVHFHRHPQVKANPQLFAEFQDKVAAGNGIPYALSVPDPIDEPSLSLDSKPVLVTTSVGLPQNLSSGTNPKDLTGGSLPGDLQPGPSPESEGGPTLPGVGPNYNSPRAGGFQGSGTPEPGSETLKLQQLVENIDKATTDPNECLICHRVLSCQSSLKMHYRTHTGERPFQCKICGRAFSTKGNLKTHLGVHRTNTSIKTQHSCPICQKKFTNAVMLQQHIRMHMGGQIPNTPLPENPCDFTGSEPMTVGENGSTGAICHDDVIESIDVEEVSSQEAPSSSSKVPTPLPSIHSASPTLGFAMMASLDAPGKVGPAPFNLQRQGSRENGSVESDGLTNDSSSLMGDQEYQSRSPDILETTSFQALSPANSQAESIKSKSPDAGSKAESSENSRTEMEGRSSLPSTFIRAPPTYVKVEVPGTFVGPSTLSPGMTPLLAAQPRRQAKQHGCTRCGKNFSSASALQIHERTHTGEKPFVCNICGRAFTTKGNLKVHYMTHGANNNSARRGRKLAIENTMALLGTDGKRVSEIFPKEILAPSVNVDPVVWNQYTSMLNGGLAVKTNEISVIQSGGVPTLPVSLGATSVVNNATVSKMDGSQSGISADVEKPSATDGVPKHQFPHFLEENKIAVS"}
{"Strand": "CAGAAATC", "E-score": 0.0542}
{"Strand": "CCATGCTA", "E-score": -0.036}
{"Strand": "CCATTTAG", "E-score": -0.0129}
{"Strand": "CCGCCAAG", "E-score": -0.277}
{"Strand": "AAACTTCT", "E-score": 0.197}
{"Strand": "ACATGACC", "E-score": 0.0261}
{"data": "Set 3", "target": "CCND1, cyclin fold, Cln2 fusion (human)", "method": "yeast growth competition, sequencing", "sample": "yeast", "notes": "weak parent motif", "relative to": "not given", "direction": "higher = stronger binding", "starting sequence": "SLBP docking peptide (human); ARYKRKLLINDFG"}
{"Change": "ARYKRKLLINDYG [F12Y]", "normalised enrichment score": 0.535}
{"Change": "ARYKRKLLINDFC [G13C]", "normalised enrichment score": 0.165}
{"Change": "ARYKRKLLINFFG [D11F]", "normalised enrichment score": 0.294}
{"data": "Other studies, line by line"}
{"Molecule": "PhoQ, residues 284 288 289 292 302 303 SLKLQV", "target": "PhoP, residues 12 14 15 18 19 SEGLL (Escherichia coli, UniProt P23836)", "test": "Sort-seq, refers to: YFP reporter", "system": "E. coli", "conditions": "PhoQ-PhoP variant library, with: 10 µM Mg2+", "scale": "relative to: high Mg2+ state, higher = stronger signaling", "endpoint": "fold induction", "result": 8.2}
{"note": "Repeated from above (set 2):"}
{"Strand": "CCATTTAG", "E-score": -0.0129}
{"Strand": "CCATGCTA", "E-score": -0.036}
